Assay results gathered from unrelated publications.
Numbered parts are unrelated; each lists some results of a single study.

Set 1
Target: Sal-like protein 4, full length isoform A (SALL4, Homo sapiens, UniProt Q9UJQ4, residues 1-1053)
Sequence of UniProt Q9UJQ4 (whole entry, looked up): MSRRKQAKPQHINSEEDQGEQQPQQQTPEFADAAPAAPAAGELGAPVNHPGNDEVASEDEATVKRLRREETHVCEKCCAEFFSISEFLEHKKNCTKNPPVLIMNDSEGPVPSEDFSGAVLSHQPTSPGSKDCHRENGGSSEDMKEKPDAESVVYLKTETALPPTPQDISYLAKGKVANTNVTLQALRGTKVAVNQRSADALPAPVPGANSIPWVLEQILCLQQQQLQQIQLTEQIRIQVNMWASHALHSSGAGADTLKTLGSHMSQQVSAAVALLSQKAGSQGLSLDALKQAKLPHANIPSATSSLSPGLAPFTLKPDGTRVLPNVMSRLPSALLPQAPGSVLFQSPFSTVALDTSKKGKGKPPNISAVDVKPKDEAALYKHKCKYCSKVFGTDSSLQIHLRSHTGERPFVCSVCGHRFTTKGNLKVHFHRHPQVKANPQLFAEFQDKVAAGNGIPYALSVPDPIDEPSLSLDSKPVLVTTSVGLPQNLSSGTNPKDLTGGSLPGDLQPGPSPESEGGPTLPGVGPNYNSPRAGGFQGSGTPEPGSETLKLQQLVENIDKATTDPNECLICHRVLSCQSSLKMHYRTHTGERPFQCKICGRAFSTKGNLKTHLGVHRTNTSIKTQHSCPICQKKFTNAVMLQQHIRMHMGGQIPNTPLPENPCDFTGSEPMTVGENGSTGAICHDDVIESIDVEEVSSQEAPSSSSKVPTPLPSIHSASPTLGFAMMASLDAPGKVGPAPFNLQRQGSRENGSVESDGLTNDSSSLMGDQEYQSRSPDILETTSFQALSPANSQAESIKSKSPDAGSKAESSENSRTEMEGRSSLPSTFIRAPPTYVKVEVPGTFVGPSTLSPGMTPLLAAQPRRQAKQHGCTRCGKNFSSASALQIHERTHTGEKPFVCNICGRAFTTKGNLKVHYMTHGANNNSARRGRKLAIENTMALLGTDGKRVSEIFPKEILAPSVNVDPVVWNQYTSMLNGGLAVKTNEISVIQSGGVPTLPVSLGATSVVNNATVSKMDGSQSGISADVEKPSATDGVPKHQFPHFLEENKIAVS
Technique: universal PBM
Molecule type: double-stranded DNA, one strand shown
Sample: in vitro
Tested at: 600 nM
Setting: 8-mer, flanks averaged, mean of replicates
Direction: higher = stronger binding
For `CACTTGCC`, the E-score was -0.156.
With `ACATTCGC` the E-score was -0.0623.
The E-score of `ATCAGAGA` is reported as 0.0655.
For `CATCCATG`, the E-score was 0.0436.
The E-score of `CCACTAGA` is reported as -0.114.
With `AAGAGGGC` the E-score was -0.102.
The E-score of `TCAAATCA` is reported as 0.237.
For `GCGGAAGA`, the E-score was -0.0423.
`GAAGAATC` gave an E-score of -0.073.
The E-score of `ACACTTGA` is reported as 0.0338.
`CCACCATA` gave an E-score of -0.0157.
For `CAGCGCTC`, the E-score was -0.151.
The E-score of `AACAAGTT` is reported as 0.106.
`AGGTGAGC` has an E-score of -0.155.
`AGTTATCG` gave an E-score of 0.25.
For `AGGTATAC`, the E-score was 0.105.
`GGTCTCGA` gave an E-score of -0.127.
`CTCGCACC` has an E-score of -0.214.
With `CAAATGTA` the E-score was 0.301.
`CTACCTAG` has an E-score of 0.0696.
`CACAAATG` gave an E-score of 0.139.
`CAGAACTA` has an E-score of 0.0942.
`CATTCGCG` has an E-score of 0.011.
`GTGAGGTA` has an E-score of -0.0737.
`AATCATGC` gave an E-score of -0.0814.

Set 2
Target: RNA binding protein fox-1 homolog 2, RRM domain, GST-SBP tag (RBFOX2, Homo sapiens, UniProt O43251-10, residues 100-194)
Technique: RNA Bind-n-Seq
Molecule type: RNA
Sample: in vitro
Tested at: 365 nM
Setting: natural RNA segment, single round, ends assumed
Relative to: no-protein control
Direction: higher = stronger binding
All sequences stand within: GGGAGUUCUACAGUCCGACGAUC … UGGAAUUCUCGGGUGCCAA
Residues (chain): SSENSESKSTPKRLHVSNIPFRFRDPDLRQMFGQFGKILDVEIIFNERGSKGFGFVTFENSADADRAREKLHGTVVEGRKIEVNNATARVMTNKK
`CAGGGCAUGCCAGCGUUAACACCACUUUGAGAGACCAAUGGCAAGAAAUGCUGUCUCUUGUGCAUUUUACUAAUUUCCCCAUUCUUAGGGUAGCAGGGUGGGGGUGUAUA`: “RBNS enrichment (R)” 9.92.
`AAUUGUUGUUGUGUGUACAUUUGAUUUUCAUAAAGAUGGUAGUAAGUCAAUGCAUUAACCCUCAUCUGUGUAUUAUUUGUUCACAAGUUCCAGAGGUUGAAGGACUGACU` — result for “RBNS enrichment (R)”: 0.463.
Under “RBNS enrichment (R)”, `CUUGGACACAGAACACACCAAGAAGGGCUUCAGAAACUAGGGAGGGAAUGCUUGACUCCACGCAUUGAGCCCCUCCUACACAUUGGUACAAGGUCGCUUAGGCCCCUCUA` is recorded as 0.638.
For `AUGGUUUGGGAUCUUUUUGCACUGAGCAAUUUUAUUUCAGGCUUCCAGCUGUCCCUGUGAGUUAUCCUGGACAUUUCGAUGGUUUUUGGUAAGGCCAAACUCUGAUAAGC`, “RBNS enrichment (R)” read 0.484.
`CCAGAGAGUAAGAAAGCCCAAAUCUGUUACAGCUUCUAAAAAAAUAGAUUUCUAAUUUGUCCUACUCAUGUUAGGAGCAUUAUCUUUGAAGGUAAAACAUAGUGUAUCAU`: “RBNS enrichment (R)” 1.07.
Under “RBNS enrichment (R)”, `AGAUGAAAAAGGAGAGACAUGGAAAGGGAGACAGCCAGGUGGCACCUGCAGCGGCUGCCCUCUGGGGCCACUUGGUAGUGUCCCCAGCCUACCUCUCCACAAGGGGAUUU` is recorded as 0.306.
For `AAGGAAUGAUUGCUAUAUUAUAUAUAAUUUUUAUGUGAAGCCUGUUUGACUAAUGUGUCUGGACUACUUGUAACUAGUUUUAUGAGCCUGUCAUAAUUUGCCAGGGUUCC`, “RBNS enrichment (R)” read 0.864.
`AAUGUAAAAUGAUUCUGUAUUAAUGUAAAUAAGAUUAUCUAUUGCAAAAAGAUAUUUCAAACCUAAAUUGUGGUCAUUUCUUCUUUGAAAGAAUUCAGACAGCCUCUGCA`: “RBNS enrichment (R)” 2.5.

Set 3
Target: Fragile X messenger ribonucleoprotein 1, C-terminal low-complexity region (Fmr1, Mus musculus, UniProt P35922)
Technique: RNA Bind-n-Seq
Molecule type: RNA
Sample: in vitro
Tested at: 200 nM
Setting: whole 134-nt RNA, ends assumed
Added: 150 mM KCl
Relative to: input library
Direction: higher = stronger binding
All sequences stand within: GGGAGUUCUACAGUCCGACGAUC … UGGAAUUCUCGGGUGUCAAGG
`AGUCCUGUGCUACACAUCGUAUGUACCGAAUCGGUUUUUGGAAAAAAAGGUUUUUGGAAAGUAUUAUGUUACGCCGUUCGGAUCUGCACU` has a log2 enrichment of -1.41.
The log2 enrichment of `CUGUGCUACACAUCGUAUGUACCGAAUCGGGGAAAAAAAGGGGUUUUUGGGGUUUUUGGGGAAAGUAUUAUGUUACGCCGUUCGGAUCUG` is reported as -0.035.
For `GUCCUGUGCUACACAUCGUAUGUACCGAAUCGGGGAAAAAAAGGGGAAAGGGGAGGGGAAAGUAUUAUGUUACGCCGUUCGGAUCUGCAC`, the log2 enrichment was 0.443.
`ACCAUGCAGGUGGGCAUCUUUGGCAAGUGGGGCAAGGGGGGGAUAGGGAGGGGGGUAACACUUUGGGAACAGGUGGUCCCAGGUCGUUUC` has a log2 enrichment of 0.718.
With `UGUGCUACACAUCGUAUGUACCGAAUCGGGGUUUUUUUGGUUUUUUUGGGGUUUUUUUGGGGAAAGUAUUAUGUUACGCCGUUCGGAUCU` the log2 enrichment was 0.0238.
For `GAAAGAAGUAAAAACAAAUGGAAAUGCUUCGGAUAGUGGCAGGGGUGGGGGUUGCUAAGGAAAGGGUGGGAUGGGAGUGGGUAAAGAGUU`, the log2 enrichment was -0.29.
`GGACAAGAAUCCUUCAAGAAACAGGAAAAAACUCCUAAAACACCAAAAGGACCUAGUUCUGUAGAAGACAUUAAAGCAAAAAUGCAAGCA` gave a log2 enrichment of 0.4.
For `ACCAUGGAGGUGGGCAUCUUUGGGAAGUGGGGCAAGGGGGGGAUAGGGAGGGGGGUAACACUUUGGGAACAGGUGGUCCCAGGUCGUUUC`, the log2 enrichment was 0.51.
For `ACCAUGCAGGUGGGCAUGUUUGGGAAGUGGGGCAAGGGGGGGAUAGGGAGGGGGGUAACACUUUGGGAACAGGUGGUCCCAGGUCGUUUC`, the log2 enrichment was 0.726.

Set 4
Target: Histone acetyltransferase KAT6A, winged helix 2, GST fusion (KAT6A, Homo sapiens, UniProt Q92794, residues 85-181)
Technique: protein binding microarray
Molecule type: double-stranded DNA, one strand shown
Sample: in vitro
Tested at: not given
Setting: 8-mer, flanks averaged, mean of 2 arrays, mostly near background
Relative to: not given
Direction: higher = stronger binding
Residues (chain): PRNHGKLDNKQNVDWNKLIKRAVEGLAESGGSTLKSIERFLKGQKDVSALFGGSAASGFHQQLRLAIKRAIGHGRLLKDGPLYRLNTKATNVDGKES
For `GCTTAGAC`, the E-score was -0.174.
`CGACACTC` has an E-score of 0.0876.
`GCTATAGA` gave an E-score of -0.143.
With `ATGTTCAA` the E-score was -0.191.
`GGCTCTAA` has an E-score of 0.0518.
With `CTCCCAAA` the E-score was 0.0375.
`GGAGCACC` gave an E-score of 0.0862.
`CTAACTGC` gave an E-score of -0.0828.
`ATGCCAAT` gave an E-score of 0.00351.
With `GCGATAGC` the E-score was 0.163.
With `CATCCTGG` the E-score was 0.0347.
`GCATCTGA` gave an E-score of -0.126.
`AAACTGGC` gave an E-score of -0.0159.
The E-score of `AGAGATGG` is reported as -0.135.
With `CGCAAACG` the E-score was 0.0429.
`ATGTCTCG` has an E-score of -0.0833.
`CACCGGGA` has an E-score of -0.0421.
With `TAACCGCA` the E-score was 0.167.
The E-score of `CTTATAAC` is reported as -0.0323.
The E-score of `GATCGAAC` is reported as -0.0352.
For `GTCCCACA`, the E-score was 0.0776.
For `ATTCGTTC`, the E-score was 0.078.
The E-score of `GAGACCTC` is reported as 0.0307.
`ACGTGCAC` gave an E-score of -0.291.
The E-score of `CGATCGTA` is reported as -0.0881.

For quick reference, copied from above (set 4):
`GGCTCTAA` has an E-score of 0.0518.
`AAACTGGC` gave an E-score of -0.0159.
For `GCTTAGAC`, the E-score was -0.174.
The E-score of `GATCGAAC` is reported as -0.0352.
`CTAACTGC` gave an E-score of -0.0828.
For `GTCCCACA`, the E-score was 0.0776.
`ATGCCAAT` gave an E-score of 0.00351.
`GGAGCACC` gave an E-score of 0.0862.
